Measured values from different studies.
Each line is one published result; not all experiments were run side by side. “And” joins repeats or separate records; there may be more than shown. ± gives the spread as reported.
PPARG: Peroxisome proliferator-activated receptor gamma (PPARG, Homo sapiens, UniProt P37231)
UniProt P37231, sequence (whole entry, looked up): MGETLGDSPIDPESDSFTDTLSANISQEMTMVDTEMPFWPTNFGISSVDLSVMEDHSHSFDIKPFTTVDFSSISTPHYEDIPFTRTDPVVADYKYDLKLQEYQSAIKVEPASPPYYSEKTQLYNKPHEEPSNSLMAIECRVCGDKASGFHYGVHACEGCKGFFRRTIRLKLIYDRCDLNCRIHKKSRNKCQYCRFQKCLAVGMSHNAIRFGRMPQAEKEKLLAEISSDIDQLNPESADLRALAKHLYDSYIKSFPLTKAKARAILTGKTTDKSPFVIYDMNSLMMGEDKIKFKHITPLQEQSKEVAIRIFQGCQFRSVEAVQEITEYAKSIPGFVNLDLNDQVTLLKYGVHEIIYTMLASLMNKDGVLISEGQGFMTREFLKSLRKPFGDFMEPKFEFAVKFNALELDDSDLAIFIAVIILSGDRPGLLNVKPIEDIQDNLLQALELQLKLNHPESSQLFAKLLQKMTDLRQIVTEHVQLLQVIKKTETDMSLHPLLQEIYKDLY
Rhomboid protease AarA: Rhomboid protease AarA (Providencia stuartii, UniProt P46116)
UniProt P46116, sequence (whole entry, looked up): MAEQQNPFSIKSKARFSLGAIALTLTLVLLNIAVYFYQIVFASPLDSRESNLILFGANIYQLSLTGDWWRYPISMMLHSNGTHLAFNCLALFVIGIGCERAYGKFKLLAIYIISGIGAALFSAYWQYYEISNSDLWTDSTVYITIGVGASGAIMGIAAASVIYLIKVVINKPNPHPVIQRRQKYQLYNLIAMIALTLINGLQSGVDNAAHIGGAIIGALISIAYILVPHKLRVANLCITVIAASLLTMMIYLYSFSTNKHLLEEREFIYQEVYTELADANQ
HDAC1: Histone deacetylase 1 (HDAC1, Homo sapiens, UniProt Q13547)
UniProt Q13547, sequence (whole entry, looked up): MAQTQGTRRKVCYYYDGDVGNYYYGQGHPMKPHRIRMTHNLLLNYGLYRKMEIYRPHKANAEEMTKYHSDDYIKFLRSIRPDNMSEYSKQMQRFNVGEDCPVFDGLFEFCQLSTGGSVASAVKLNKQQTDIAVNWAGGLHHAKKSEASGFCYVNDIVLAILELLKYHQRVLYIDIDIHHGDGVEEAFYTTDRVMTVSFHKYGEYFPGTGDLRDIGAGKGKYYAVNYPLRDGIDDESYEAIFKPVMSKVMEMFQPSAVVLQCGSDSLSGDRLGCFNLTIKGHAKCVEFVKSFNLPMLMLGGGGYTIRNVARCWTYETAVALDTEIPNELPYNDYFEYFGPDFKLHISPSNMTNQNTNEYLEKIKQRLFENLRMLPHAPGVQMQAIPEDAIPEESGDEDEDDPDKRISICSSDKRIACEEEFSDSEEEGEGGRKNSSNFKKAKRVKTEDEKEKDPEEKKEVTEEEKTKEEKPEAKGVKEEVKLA
PPARG ligand-binding domain: Peroxisome proliferator-activated receptor gamma, ligand-binding domain (PPARG, Homo sapiens, UniProt P37231)
UniProt P51681, sequence (whole entry, unmodified, looked up): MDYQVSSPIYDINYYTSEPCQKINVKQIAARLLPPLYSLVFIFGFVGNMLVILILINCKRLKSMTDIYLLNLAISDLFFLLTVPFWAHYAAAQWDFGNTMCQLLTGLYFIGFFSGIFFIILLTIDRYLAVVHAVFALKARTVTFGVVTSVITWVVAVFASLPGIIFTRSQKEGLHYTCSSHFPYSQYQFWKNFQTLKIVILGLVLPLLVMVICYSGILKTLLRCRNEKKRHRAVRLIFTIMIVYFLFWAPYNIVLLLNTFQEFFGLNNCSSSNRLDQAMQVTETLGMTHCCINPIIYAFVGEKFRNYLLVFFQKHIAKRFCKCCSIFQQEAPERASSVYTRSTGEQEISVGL
UniProt P28064, sequence (whole entry, looked up): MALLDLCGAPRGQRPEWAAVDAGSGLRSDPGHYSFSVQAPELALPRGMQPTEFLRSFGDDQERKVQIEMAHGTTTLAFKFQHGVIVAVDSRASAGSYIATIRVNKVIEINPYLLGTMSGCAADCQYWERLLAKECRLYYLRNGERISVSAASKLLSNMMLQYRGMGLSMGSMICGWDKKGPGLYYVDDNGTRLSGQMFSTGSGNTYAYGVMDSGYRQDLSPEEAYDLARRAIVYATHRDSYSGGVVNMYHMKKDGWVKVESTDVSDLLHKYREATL
UniProt P08172, sequence (whole entry, looked up): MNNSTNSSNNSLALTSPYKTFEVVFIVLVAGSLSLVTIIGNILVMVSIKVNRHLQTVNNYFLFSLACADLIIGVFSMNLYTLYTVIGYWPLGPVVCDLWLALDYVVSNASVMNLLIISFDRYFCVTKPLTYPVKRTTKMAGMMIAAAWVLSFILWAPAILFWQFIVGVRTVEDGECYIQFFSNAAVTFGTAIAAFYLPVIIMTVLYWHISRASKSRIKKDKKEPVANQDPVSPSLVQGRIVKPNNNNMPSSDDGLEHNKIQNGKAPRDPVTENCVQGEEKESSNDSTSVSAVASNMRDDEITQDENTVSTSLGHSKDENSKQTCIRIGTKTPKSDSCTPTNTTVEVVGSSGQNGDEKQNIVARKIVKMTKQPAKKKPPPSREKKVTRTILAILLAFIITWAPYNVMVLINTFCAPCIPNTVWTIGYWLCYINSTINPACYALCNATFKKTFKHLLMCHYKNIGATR
UniProt P43358, sequence (whole entry, looked up): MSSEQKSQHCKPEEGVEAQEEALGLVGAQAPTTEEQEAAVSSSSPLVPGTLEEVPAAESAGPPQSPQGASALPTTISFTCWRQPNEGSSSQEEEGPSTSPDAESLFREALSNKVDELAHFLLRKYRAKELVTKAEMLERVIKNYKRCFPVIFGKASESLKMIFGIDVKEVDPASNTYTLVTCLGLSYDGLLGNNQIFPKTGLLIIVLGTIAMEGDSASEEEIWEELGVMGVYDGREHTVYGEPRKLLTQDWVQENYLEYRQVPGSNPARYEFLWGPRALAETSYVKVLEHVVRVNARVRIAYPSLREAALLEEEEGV
UniProt Q9NQR1, sequence (whole entry, looked up): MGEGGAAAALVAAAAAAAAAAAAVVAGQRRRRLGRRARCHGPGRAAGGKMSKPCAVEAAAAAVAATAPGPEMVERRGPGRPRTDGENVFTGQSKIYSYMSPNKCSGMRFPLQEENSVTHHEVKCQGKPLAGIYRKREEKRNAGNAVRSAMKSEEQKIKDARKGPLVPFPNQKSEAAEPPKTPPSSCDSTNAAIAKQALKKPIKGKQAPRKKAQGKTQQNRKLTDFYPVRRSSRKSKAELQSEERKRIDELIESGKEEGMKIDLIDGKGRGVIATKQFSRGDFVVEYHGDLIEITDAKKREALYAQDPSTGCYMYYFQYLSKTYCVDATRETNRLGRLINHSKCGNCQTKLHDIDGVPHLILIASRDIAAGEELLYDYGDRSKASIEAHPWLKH
UniProt O08914, sequence (whole entry, looked up): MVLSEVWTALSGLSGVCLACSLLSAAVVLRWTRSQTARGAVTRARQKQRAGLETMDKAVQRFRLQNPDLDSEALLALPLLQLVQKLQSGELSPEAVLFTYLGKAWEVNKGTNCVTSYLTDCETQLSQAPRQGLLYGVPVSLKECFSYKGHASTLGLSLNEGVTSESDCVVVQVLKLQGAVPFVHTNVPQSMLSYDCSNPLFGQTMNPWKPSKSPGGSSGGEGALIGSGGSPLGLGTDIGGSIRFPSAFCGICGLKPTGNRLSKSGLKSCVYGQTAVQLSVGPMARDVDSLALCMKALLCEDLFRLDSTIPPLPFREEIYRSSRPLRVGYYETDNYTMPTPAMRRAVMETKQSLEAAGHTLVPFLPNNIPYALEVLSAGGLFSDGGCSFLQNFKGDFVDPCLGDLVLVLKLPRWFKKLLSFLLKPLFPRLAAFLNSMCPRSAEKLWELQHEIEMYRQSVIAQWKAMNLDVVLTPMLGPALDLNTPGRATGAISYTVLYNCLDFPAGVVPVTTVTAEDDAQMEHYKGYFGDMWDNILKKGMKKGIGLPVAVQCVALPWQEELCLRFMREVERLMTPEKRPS
UniProt P06401, sequence (whole entry, looked up): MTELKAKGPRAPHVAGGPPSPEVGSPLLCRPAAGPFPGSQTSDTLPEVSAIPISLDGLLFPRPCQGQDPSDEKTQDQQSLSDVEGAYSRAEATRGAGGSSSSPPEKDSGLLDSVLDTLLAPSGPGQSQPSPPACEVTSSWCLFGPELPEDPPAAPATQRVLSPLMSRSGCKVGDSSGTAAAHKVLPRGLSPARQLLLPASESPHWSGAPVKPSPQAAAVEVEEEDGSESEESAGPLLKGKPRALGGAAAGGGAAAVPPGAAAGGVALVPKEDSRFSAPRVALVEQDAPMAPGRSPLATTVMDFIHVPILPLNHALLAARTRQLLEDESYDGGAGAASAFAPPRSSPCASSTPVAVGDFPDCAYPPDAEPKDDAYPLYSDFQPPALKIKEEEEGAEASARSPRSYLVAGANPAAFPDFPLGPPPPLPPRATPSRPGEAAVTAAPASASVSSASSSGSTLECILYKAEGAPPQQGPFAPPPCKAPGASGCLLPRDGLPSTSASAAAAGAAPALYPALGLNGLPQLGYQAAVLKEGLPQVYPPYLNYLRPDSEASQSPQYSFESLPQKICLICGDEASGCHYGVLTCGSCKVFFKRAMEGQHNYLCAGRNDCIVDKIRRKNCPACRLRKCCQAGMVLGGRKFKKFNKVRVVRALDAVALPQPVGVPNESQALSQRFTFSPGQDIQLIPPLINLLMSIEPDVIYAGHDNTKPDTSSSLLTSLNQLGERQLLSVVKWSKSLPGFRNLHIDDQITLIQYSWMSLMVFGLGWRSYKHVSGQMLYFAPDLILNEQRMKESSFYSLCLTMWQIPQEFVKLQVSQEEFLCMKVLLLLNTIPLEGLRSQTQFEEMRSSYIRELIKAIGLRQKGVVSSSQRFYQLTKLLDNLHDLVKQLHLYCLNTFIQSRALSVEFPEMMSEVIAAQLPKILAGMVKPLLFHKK
UniProt Q07820, sequence (whole entry, looked up): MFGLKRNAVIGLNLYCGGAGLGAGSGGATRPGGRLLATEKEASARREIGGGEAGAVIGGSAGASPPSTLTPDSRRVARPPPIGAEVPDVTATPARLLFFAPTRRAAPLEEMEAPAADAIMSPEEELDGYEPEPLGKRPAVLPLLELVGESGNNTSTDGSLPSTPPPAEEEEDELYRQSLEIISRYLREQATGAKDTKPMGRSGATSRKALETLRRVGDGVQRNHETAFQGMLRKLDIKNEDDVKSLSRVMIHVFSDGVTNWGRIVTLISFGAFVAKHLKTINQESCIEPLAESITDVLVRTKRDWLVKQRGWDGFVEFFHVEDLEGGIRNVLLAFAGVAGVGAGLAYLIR

Structure (SMILES) | target | test | system | setting | IC50
Cc1c(Cc2ccc(Cl)c(OC(C)C(=O)O)c2)c2ccc(C(=O)NCc3ccc(C(C)(C)C)cc3)cc2n1CC(C)C (stereo not shown) | PPARG | ligand displacement, TR-FRET |  |  | 1.93 nM
CCN(CC)CC(=O)Nc1cccc(-n2cc(-c3ccc4ccc(-c5cn(-c6cccc(NC(=O)CN(CC)CC)c6)nn5)cc4c3)nn2)c1 | Receptor tyrosine-protein kinase erbB-4 (ERBB4, Homo sapiens, UniProt Q15303) | enzyme activity, inhibitor |  |  | > 10000 nM
Cc1nn(-c2ccccc2)nc1CNC(=O)C(C(F)(F)F)C(F)(F)F | Rhomboid protease AarA | enzyme activity, inhibitor, fluorescence |  |  | 3300 nM
COC(=O)CCCCC(=O)Nc1ccc(Nc2ncc(F)c(-c3cc(F)c4nc(C)n(C(C)C)c4c3)n2)cc1 | HDAC1 | enzyme activity, inhibitor |  |  | > 1000 nM
Cc1ccc(S(=O)(=O)N2CC(NC(=O)Cc3ccccc3)C2=O)cc1 (stereo not shown) | Rhomboid protease AarA | enzyme activity, inhibitor, fluorescence |  |  | 66000 nM
Cc1c(Cc2cccc(OC(C)(C)C(=O)O)c2)c2ccc(C(=O)NCc3ccc(C(C)(C)C)cc3)cc2n1CC1CCC1 | PPARG | ligand displacement, TR-FRET |  |  | 30.1 nM
Cc1nn(-c2cccc(N)c2)c(=O)c2cnc(Nc3ccc(N4CCNCC4)cc3)nc12 | Phosphatidylinositol 4-kinase alpha (PI4KA, Homo sapiens, UniProt P42356) | enzyme activity, inhibitor |  |  | > 10000 nM
Cc1ccc(CNC(=O)[C@@H](NC(=O)[C@H](CCc2ccccc2)NC(=O)[C@H](CCc2ccccc2)N(C)C)C(C)C)cc1 | Psmb1/Psmb8 (Rattus norvegicus, UniProt P18421+P28064) | enzyme activity, inhibitor |  | together with: Ac-ANW-aminocoumarin, PA28α 12 nM | 2150 nM
Cc1ccc(S(=O)(=O)N2CC(C)C2=O)cc1 (stereo not shown) | Rhomboid protease AarA | enzyme activity, inhibitor, fluorescence |  |  | 180000 nM
Clc1ccc(CC2CON=C(c3cc(Cl)nnc3Oc3cccc(C4CC4)c3)N2)c(Cl)c1 (stereo not shown) | serine palmitoyltransferase (Zymoseptoria tritici, UniProt F9X349+F9XMN6) |  |  |  | 23 ± 5 nM
O=C(C(C(F)(F)F)C(F)(F)F)N1CCc2ccccc21 | Rhomboid protease AarA | enzyme activity, inhibitor, fluorescence |  |  | 3600 nM
Cc1c(Cc2ccc(OC(C)C(=O)O)cc2)c2ccc(C(=O)NC(C)c3cccc(C(F)(F)F)c3)cc2n1C (mixture of isomers) | PPARG ligand-binding domain | reporter gene, luciferase reporter | HEK293T, Gal4-PPARγ LBD |  | 1950 nM
C[C@@H]1Cc2c([nH]c3ccccc23)[C@@H](c2c(F)cc(/C=C/C(=O)O)cc2F)N1C12CC(C1)C2 | Progesterone receptor (PGR, Homo sapiens, UniProt P06401) | PR receptor activity, antagonist, cell-based |  |  | 655 nM
COC(=O)CCCC(=O)Nc1ccc(Nc2ncc(F)c(-c3cc(F)c4nc(C)n(C(C)C)c4c3)n2)cc1 | HDAC1 | enzyme activity, inhibitor |  |  | > 1000 nM
Cc1c(Cc2cccc(OC(C)(C)C(=O)O)c2)c2ccc(C(=O)N[C@@H](C)c3ccc(C4CC4)cc3)cc2n1C | PPARG ligand-binding domain | reporter gene, luciferase reporter | HEK293T, Gal4-PPARγ LBD |  | 1190 nM
CC(=O)c1cnc(N)nc1N1CC[C@H]1c1nn2ccc(Cl)c2c(=O)n1-c1ccccc1 | Phosphatidylinositol 4,5-bisphosphate 3-kinase catalytic subunit beta isoform (Rattus norvegicus, UniProt Q9Z1L0) | binding, KiNativ | intact rat white blood cells |  | > 1000 nM
Cc1c(Cc2ccc(OC(C)(C)C(=O)O)cc2)c2ccc(C(=O)N[C@@H](C)c3ccc(C(F)(F)F)cc3)cc2n1C | PPARG | ligand displacement, TR-FRET |  |  | 25 nM

Structure (SMILES) | target | test | system | setting | IC50
Cc1nnc(C(C)C)n1C1CC2CCC(C1)N2CCC(NC(=O)COCCOCCNC(=O)Cc1ccc(-c2nncnn2)cc1)c1ccccc1 (stereo not shown) | C-C chemokine receptor type 5 (CCR5, Homo sapiens, UniProt P51681, Y184K) | calcium mobilisation, inhibitor | HEK293T expressing CCR5 | together with: PSC-RANTES | 80 nM and 114 nM and 90.4 nM
CC[C@H](C)[C@@H]1NC(=O)[C@H](Cc2ccc(O)cc2)NC(=O)CSC[C@@H](C(N)=O)NC(=O)[C@H](CC(N)=O)NC(=O)[C@H](Cc2c[nH]cn2)NC(=O)[C@H](Cc2ccc(O)cc2)NC(=O)[C@H](CC(=O)O)NC(=O)[C@H](Cc2ccc(Br)cc2)NC(=O)[C@H](CC(C)C)NC(=O)[C@H](CCCNC(=N)N)NC1=O | Melanoma-associated antigen 4, MAGE homology domain (Homo sapiens, UniProt P43358) | binding, inhibitor, TR-FRET displacement |  | together with: Alexa647-MTP-1 | 46.3 ± 16 nM
CC1(C)CCC(CN2CCN(c3ccc(C(=O)NS(=O)(=O)c4ccc(NCC5CCOCC5)c([N+](=O)[O-])c4)c(Oc4cnc5[nH]ccc5c4)c3)CC2)=C(c2ccc(Cl)cc2)C1 | Induced myeloid leukemia cell differentiation protein Mcl-1 (MCL1, Homo sapiens, UniProt Q07820) | binding, inhibitor, fluorescence polarization |  | together with: labeled Bid-BH3 peptide | > 200000 nM
O=C(COc1ccccc1NC(=O)C(C(F)(F)F)C(F)(F)F)NCC1CC1 | Rhomboid protease AarA | enzyme activity, inhibitor, fluorescence |  |  | 7400 nM
Cc1c(Cc2cccc(OC(C)(C)C(=O)O)c2)c2ccc(C(=O)N[C@@H](C)c3cccc(C(C)(C)C)c3)cc2n1C | PPARG | ligand displacement, TR-FRET |  |  | 3 nM
COCc1cc2c(cn1)CN(C(=O)Nc1nc(-c3ccc(F)cc3)ccc1N)C2 | Lysine-specific histone demethylase 1A, with CoREST (KDM1A, Homo sapiens, UniProt O60341) | demethylase activity, inhibitor |  | LSD1-CoREST complex | > 150000 nM
Cc1cc2c(cc1N)n(C)c(=O)n2C | Peregrin, bromodomain (BRPF1, Homo sapiens, UniProt P55201) |  |  |  | 157 nM
O=C(CCCCCCc1ccccc1)c1ncc(-c2ccc(CBr)cn2)o1 | Fatty-acid amide hydrolase 1 (Faah, Mus musculus, UniProt O08914) | enzyme activity, inhibitor |  | with preincubation | < 10 nM
COCCNC(=O)c1ccc(NC(=O)C(C(F)(F)F)C(F)(F)F)cc1 | Rhomboid protease AarA | enzyme activity, inhibitor, fluorescence |  |  | 36000 nM
Cc1c(Cc2cc(F)cc(OC(C)(C)C(=O)O)c2)c2ccc(C(=O)N[C@@H](C)c3cc(F)cc(C(C)(C)C)c3)cc2n1CC1CCC1 | PPARG | ligand displacement, TR-FRET |  |  | 3.05 nM
COc1cccc2c1C(=O)c1c(O)c3c(c(O)c1C2=O)C[C@@](O)(C(=O)CO)C[C@@H]3O[C@H]1C[C@H](N)[C@H](O)[C@H](C)O1 | Voltage-gated inwardly rectifying potassium channel KCNH2 (KCNH2, Homo sapiens, UniProt Q12809) |  |  |  | 1000 nM
Cc1c(Cc2ccc(Cl)c(OCC(=O)O)c2)c2ccc(C(=O)NCc3ccc(C(C)(C)C)cc3)cc2n1C | PPARG ligand-binding domain | reporter gene, luciferase reporter | HEK293T, Gal4-PPARγ LBD |  | 150 nM
O=C(NCC1CC1)c1ccccc1NC(=O)C(C(F)(F)F)C(F)(F)F | Rhomboid protease AarA | enzyme activity, inhibitor, fluorescence |  |  | 6700 nM
Cc1ccc(N=C2CC(=O)c3sc(C)nc3C2=O)cc1 | N-lysine methyltransferase KMT5A (KMT5A, Homo sapiens, UniProt Q9NQR1) | enzyme activity, inhibitor, radiometric |  |  | 600 nM
O=C(CCNC(=O)CNC(=O)CC(c1ccccc1)(c1ccccc1)c1ccccc1)NC[C@@H]1CCCN(Cc2ccc3cc(F)ccc3c2)C1 | Muscarinic acetylcholine receptor M2 (CHRM2, Homo sapiens, UniProt P08172) | ligand displacement, radioligand |  | cell membranes | 10000 nM
Cc1cncn1Cc1ccc(-c2cccc(Br)c2)cc1 | Glutaminyl-peptide cyclotransferase-like protein (Homo sapiens, UniProt Q9NXS2) |  |  |  | 1670 nM
COc1ccc(Nc2cc(NC3CC3)n3ncc(C#N)c3n2)cc1 | Dual specificity tyrosine-phosphorylation-regulated kinase 2 (DYRK2, Homo sapiens, UniProt Q92630) | inhibitor |  |  | 720 nM

A few entries again:
Structure (SMILES) | target | test | system | setting | IC50
Cc1cc2c(cc1N)n(C)c(=O)n2C | Peregrin, bromodomain (BRPF1, Homo sapiens, UniProt P55201) |  |  |  | 157 nM
O=C(CCCCCCc1ccccc1)c1ncc(-c2ccc(CBr)cn2)o1 | Fatty-acid amide hydrolase 1 (Faah, Mus musculus, UniProt O08914) | enzyme activity, inhibitor |  | with preincubation | < 10 nM
COCCNC(=O)c1ccc(NC(=O)C(C(F)(F)F)C(F)(F)F)cc1 | Rhomboid protease AarA | enzyme activity, inhibitor, fluorescence |  |  | 36000 nM
Cc1c(Cc2cc(F)cc(OC(C)(C)C(=O)O)c2)c2ccc(C(=O)N[C@@H](C)c3cc(F)cc(C(C)(C)C)c3)cc2n1CC1CCC1 | PPARG | ligand displacement, TR-FRET |  |  | 3.05 nM
